Experimental data of several laboratories.
Several values in a cell are separate wells, animals, samples, runs or records. ± marks the error that the study gave.

COc1ncccc1-c1cnn2ccc(N3CCN(C(=O)OC(C)C)CC3)nc12  drug concentration (rat, CCI cold allodynia model, brain; oral, 3 mg/kg, 240 min): 1000 nM
CO[C@H]1C[C@@H]2CC[C@@H](C)[C@@](O)(O2)C(=O)C(=O)N2CCCC[C@H]2C(=O)O[C@H]([C@H](C)C[C@@H]2CC[C@@H](OC(=O)NCCOCCOCCOCCOCCOCCOCCOCCOCCC(=O)N3CCc4cc(Cn5nc(-c6ccc7oc(N)nc7c6)c6c(N)ncnc65)ccc4C3)[C@H](OC)C2)C[C@@H](O)[C@H](C)/C=C(\C)[C@@H](O)[C@@H](OC)C(=O)[C@H](C)C[C@H](C)/C=C/C=C/C=C/1C  dose-reducing adverse events (phase 1 dose escalation, measured: mucositis; advanced solid tumour patients; intravenous, 10 mg weekly, any grade): 25%
C=CC(=O)N1CC[C@H](n2nc(C#Cc3cc(OC)cc(OC)c3)c3c(N)ncnc32)C1  AST increased, any grade (human patients; oral, dose not given, QD regimen, adverse drug reaction, added: ferric citrate hydrate): 100%
Cn1ncc(-c2nc(N[C@H]3CC[C@H](N)CC3)ncc2Cl)c1CC1CC1  acute respiratory failure incidence (phase I dose escalation; human patients; dose not given, grade 3-4 TEAE; reference: patients): 3%
COc1ccc(CCC2CCCC(CCc3ccc(OC)cc3)N2C[C@@H](O)CO)cc1.Cl (stereo in doubt)  action potential amplitude change (rabbit Purkinje fibres; 0.03 µM, cycle length 0.5 s; reference: baseline): 2.4 ± 3.8 mV
Nc1nc2cc(-c3ccc4ncc(C(=O)N5CCOCC5)n4c3)ccc2o1  patients with adverse events (measured: Nausea, any cause, grade ≥3; patients with advanced solid tumours; dose not given): 4%
Cn1cc(-c2nc(N[C@@H]3CCCC[C@@H]3N)c(F)c3c2C(=O)NC3)cn1  hemorrhagic adverse events (measured: Rectal haemorrhage; patients with relapsed or refractory AML; oral, 80 mg twice daily): 17%
CCc1ccc(CC/C=C/c2ccc3c(c2)C(=O)CC3)cc1  TG (Sprague-Dawley rat, female; oral, 450 mg/kg/day, 14 days): 0.4 mM
CC[C@H](C)[C@H](NC(=O)[C@H](Cc1ccccc1)NC(=O)[C@H](CCC(=O)O)NC(=O)[C@H](CCCNC(=N)N)NC(=O)[C@H](C)NC(=O)[C@H](C)NC(=O)[C@H](CCC(N)=O)NC(=O)[C@H](CCC(=O)O)NC(=O)[C@H](CCC(=O)O)NC(=O)[C@H](CC(C)C)NC(=O)[C@H](Cc1ccc(O)cc1)NC(=O)[C@H](CO)NC(=O)[C@H](CO)NC(=O)[C@@H](NC(=O)[C@H](CC(=O)O)NC(=O)[C@H](CO)NC(=O)[C@@H](NC(=O)[C@H](Cc1ccccc1)NC(=O)[C@@H](NC(=O)CNC(=O)[C@H](CCC(=O)O)NC(=O)[C@H](C)NC(=O)CCc1cnc[nH]1)[C@@H](C)O)[C@@H](C)O)C(C)C)C(=O)N[C@@H](C)C(=O)N[C@@H](Cc1c[nH]c2ccccc12)C(=O)N[C@@H](CC(C)C)C(=O)N[C@H](C(=O)N[C@@H](CCCNC(=N)N)C(=O)NCC(=O)N[C@@H](CCCNC(=N)N)C(=O)N[C@@H](CCCCNC(=O)COCCOCCNC(=O)COCCOCCNC(=O)CC[C@H](NC(=O)CCCCCCCCCCCCCCCCC(=O)O)C(=O)O)C(=O)NCC(=O)NCC(=O)N[C@@H](CO)C(=O)N[C@@H](CCCCNC(=O)[C@H](CCCCNC(=O)[C@H](CCCCNc1c(NCCCCCN(O)C(=O)CCC(=O)NCCCCCN(O)C(=O)CCC(=O)NCCCCCN(O)C(C)=O)c(=O)c1=O)Nc1c(NCCCCCN(O)C(=O)CCC(=O)NCCCCCN(O)C(=O)CCC(=O)NCCCCCN(O)C(C)=O)c(=O)c1=O)NC(=O)[C@H](CCCCNc1c(NCCCCCN(O)C(=O)CCC(=O)NCCCCCN(O)C(=O)CCC(=O)NCCCCCN(O)C(C)=O)c(=O)c1=O)Nc1c(NCCCCCN(O)C(=O)CCC(=O)NCCCCCN(O)C(=O)CCC(=O)NCCCCCN(O)C(C)=O)c(=O)c1=O)C(=O)O)C(C)C [zirconium-89 labelled]  tissue uptake (ex vivo gamma counting; Sprague-Dawley rat, male, stomach; intravenous, 1 nmol, 24 h): 0.199 %ID/g and 0.232 %ID/g and 0.246 %ID/g and 0.226 %ID/g and 0.179 %ID/g
CCCCCCCCCCCCCCCC(=O)N[C@@H](CCC(=O)NCCCC[C@H](NC(=O)[C@H](CC(=O)O)NC(=O)[C@H](CO)NC(=O)[C@@H](NC(=O)[C@H](Cc1ccccc1)NC(=O)[C@@H](NC(=O)CNC(=O)[C@H](CCC(N)=O)NC(=O)[C@H](CO)NC(=O)[C@@H](N)Cc1c[nH]cn1)[C@@H](C)O)[C@@H](C)O)C(=O)N[C@@H](CO)C(=O)N[C@@H](CCC(=O)O)C(=O)N[C@@H](Cc1ccc(O)cc1)C(=O)N[C@@H](CC(C)C)C(=O)N[C@@H](CC(=O)O)C(=O)N[C@@H](CO)C(=O)N[C@@H](CCC(=O)O)C(=O)N[C@@H](CCCNC(=N)N)C(=O)N[C@@H](C)C(=O)N[C@@H](CCCNC(=N)N)C(=O)N[C@@H](CC(=O)O)C(=O)N[C@@H](Cc1ccccc1)C(=O)N[C@H](C(=O)N[C@@H](C)C(=O)N[C@@H](Cc1c[nH]c2ccccc12)C(=O)N[C@@H](CC(C)C)C(=O)N[C@@H](CCC(=O)O)C(=O)N[C@@H](C)C(=O)NCC(=O)NCC(=O)O)C(C)C)C(=O)O  treatment-related adverse events (measured: Diarrhoea; humans CrCl at least 90 mL/min; subcutaneous, 100 µg single dose): 0%
CC(C)C[C@H](NC(=O)[C@H](CCCCN)NC(=O)OCC1c2ccccc2-c2ccccc21)C(=O)N[C@H](C(=O)N[C@@H](Cc1ccccc1)C(=O)N[C@@H](Cc1ccccc1)C(=O)N[C@@H](CCCCN)C(=O)NCC(=O)N[C@@H](Cc1ccccc1)C(=O)N[C@@H](C)C(=O)N[C@@H](Cc1c[nH]c2ccccc12)C(=O)N[C@@H](CC(N)=O)C(=O)N[C@H](C(=O)N[C@H]1CSSC[C@@H](C(=O)N[C@@H](Cc2c[nH]cn2)C(=O)N[C@@H](CCCNC(=N)N)C(=O)N[C@@H](CCCNC(=N)N)C(=O)N[C@@H](C)C(=O)N[C@@H](CC(N)=O)C(N)=O)NC(=O)[C@H](C(C)C)NC(=O)[C@H](CCCNC(=N)N)NC(=O)[C@H](C(C)C)NC(=O)CNC(=O)[C@H](CC(N)=O)NC(=O)[C@H](CCCNC(=N)N)NC(=O)[C@H](Cc2ccc(O)cc2)NC(=O)[C@H](C(C)C)NC1=O)C(C)C)C(C)C  remaining peptide (HPLC; mouse liver homogenate; 2560 µM, 6.00 h, 50 mg/mL tissue): 45% and 38.3% and 42.5%
CCN1CCN(Cc2ccc(Nc3ncc(F)c(-c4cc(F)c5nc6n(c5c4)[C@H](C)CCC6)n3)nc2)CC1  creatinine renal clearance decreased (Phase Ia dose escalation; patients with advanced solid tumours; dose not given, monotherapy, any grade): 33.3%
O=c1ccc2ncc(=O)n3c2n1C[C@H]3CN1CCC(NCc2cc3c(cn2)OCCC3)CC1  AUC(0-48) (healthy human volunteers, urine; oral, dose not given, arithmetic mean, added: rifampicin): 1740 µg·h/mL
C[C@@H]1NC(=O)[C@H](CCCCNC(=O)CO/N=C/C(=O)NCCCC[C@@H]2NC(=O)[C@@H](Cc3ccccc3)NC(=O)[C@H](CC(=O)O)NC(=O)CNC(=O)[C@H](CCCNC(=N)N)NC2=O)NC(=O)CNC(=O)[C@@H]2CCCN2C(=O)[C@H](CCCCNC(=O)CO/N=C/C(=O)NCCCC[C@@H]2NC(=O)[C@@H](Cc3ccccc3)NC(=O)[C@H](CC(=O)O)NC(=O)CNC(=O)[C@H](CCCNC(=N)N)NC2=O)NC(=O)[C@H](CCCCNC(=O)CCNC(=O)CCNC(=O)CCNC(=O)[C@H](CCCCN)NC(=O)[C@H](Cc2ccccc2)NC(=O)CNC(=O)CN2CCCNCCNCCCNCC2)NC(=O)[C@H](CCCCNC(=O)CO/N=C/C(=O)NCCCC[C@@H]2NC(=O)[C@@H](Cc3ccccc3)NC(=O)[C@H](CC(=O)O)NC(=O)CNC(=O)[C@H](CCCNC(=N)N)NC2=O)NC(=O)CNC(=O)[C@@H]2CCCN2C(=O)[C@H](CCCCNC(=O)CO/N=C/C(=O)NCCCC[C@@H]2NC(=O)[C@@H](Cc3ccccc3)NC(=O)[C@H](CC(=O)O)NC(=O)CNC(=O)[C@H](CCCNC(=N)N)NC2=O)NC1=O [copper-64 labelled]  tissue uptake (normal mice, pancreas; intravenous, 0.74 MBq, 24 h post-injection): 0.52 ± 0.07 %ID/g
c1cc2ccc3cccc4ccc(c1)c2c34  Km (metabolism; pooled human liver microsomes; pH 7.4): 0.14 µM
COc1ccc(F)cc1C(=O)NCc1ccc(-c2nn([C@@H](C)C(F)(F)F)c(N)c2C(N)=O)cc1  tolerability (mouse, 4 lymphoma xenograft models; dose not given): not toxic
C[C@@H](NC(=O)N1C(=O)[C@H](Cc2ccnc(N)c2)[C@H]1C(=O)O)C1CCCCC1  incidence of hypokalemia (healthy adult Chinese volunteers; continuous intravenous infusion, 0.3 mg/kg/h, 5-day infusion, CTCAE 5.0 grading): 0%
CCCC(CCC)NC(=O)c1ccc2c(c1)OCO2  PCE/NCE ratio (Swiss albino CD-1 mice, male, bone marrow; intraperitoneal, 700 mg/kg, 48 h): 0.9
COc1cc2c(Oc3ccc4[nH]c(C)cc4c3F)ccnc2cc1OCC1(N)CC1  sinus arrhythmia incidence (paediatric refractory sarcoma patients; 8 mg): 0%
COc1cc(C(=O)NC2CCN(C)CC2)c(F)cc1Nc1ncc(C(F)(F)F)c(Oc2cccc3c2C(=O)N(C)C3)n1  dose-normalised Cmax at steady state (human patients, plasma; oral, 50 mg once daily repeated, geometric mean): 8.61 nmol/L per mg
O=C1Nc2cc3[nH]nc(-c4ccncc4)c3cc2CN1Cc1ccccc1  patients with TEAE (measured: Headache; patients with advanced solid tumours; intravenous, dose not given, all schedules): 15%
O=C(Nc1ccccc1)C1CCN(C(=O)Oc2cccnc2)CC1  change in Colors score (psychotropic effects VAS; healthy women; 20 mg; reference: pre-dose baseline, direction not given): 0.1
CC(C)CC(=O)OC[C@H]1O[C@@](C#N)(c2ccc3c(N)ncnn23)[C@H](O)[C@@H]1O  remaining compound (human whole blood; 5 µM, 15 min): 22.4 ± 1.69%
N[C@@H](Cc1ccc(O)c(O)c1)C(=O)O  Ctrough ratio (human, plasma; oral, dose not given, carbidopa/levodopa every 3 h, added: opicapone; reference: after over before opicapone): 1.95
COc1cccc(Oc2ccccc2NC(=O)CNC(=O)c2cccc3ccccc23)c1  serum creatinine (esterase-deficient SCID mice, male; oral, 15 mg/kg/day, 14 days, toxicity study): 0.1 mg/dL and 0.2 mg/dL
COc1ccc(-c2[nH]c3c(OC)c(OC)ccc3c2C(=O)c2cc(OC)c(OC)c(OC)c2)cc1OP(=O)([O-])[O-].[Na+].[Na+]  tolerability (outcome: not toxic; mouse, BALB/c, RENCA-luc tumour; intraperitoneal, 50, 100 mg/kg): not toxic
CC(=O)c1c(C)c2cnc(Nc3ccc(C4CCN(CCS(C)(=O)=O)CC4)cn3)nc2n(C2CCCC2)c1=O  patients with TEAE grade ≥3 (HR+/HER2- advanced breast cancer patients; oral, 150 mg): 66.7%
CCC[C@@](N)(CO)CCc1ccc(OCCCCCC(C)C)cc1  half-life (hound dogs, male; oral, 10 mg/kg, capsule, fed state, median): 17.4 h
COc1ccc2nc3cc(Cl)ccc3c(Nc3cc(CN4CCCC4)c(O)c(CN4CCCC4)c3)c2n1  mean corpuscular volume (mouse, blood; intraperitoneal, 57 mg/kg): 45.3 fL
CC(C)(O)c1cc(Nc2cc(Oc3cn(C4CC4)nc3C3CCOCC3)ccn2)ccn1  treatment-related adverse events (Vomiting; patients with advanced cancer, grade 4 glioma expansion; oral, 50 mg twice daily, grade ≥3, 2 weeks on/2 weeks off schedule): 5%
CC(C)[C@@H]1NC(=O)CNC(=O)[C@H](CC(N)=O)NC(=O)[C@H](CCCNC(=N)N)NC(=O)[C@H](Cc2ccc(O)cc2)NC(=O)[C@H](C(C)C)NC(=O)[C@@H](NC(=O)[C@@H](NC(=O)[C@H](CC(N)=O)NC(=O)[C@H](Cc2c[nH]c3ccccc23)NC(=O)[C@H](C)NC(=O)[C@H](Cc2ccccc2)NC(=O)CN)C(C)C)CSSC[C@@H](C(=O)N[C@@H](Cc2cnc[nH]2)C(=O)N[C@@H](CCCNC(=N)N)C(=O)N[C@@H](CCCNC(=N)N)C(=O)N[C@@H](C)C(=O)N[C@@H](CC(N)=O)C(N)=O)NC(=O)[C@H](C(C)C)NC(=O)[C@H](CCCNC(=N)N)NC1=O  neutrophils (ICR mice, blood; intraperitoneal, 5 mg/kg, day 5): 17.3 ± 0.65%
C[C@]1(CO)Cc2ncn(-c3ccc(C#N)c(Cl)c3)c2C(=O)O1  Cmax (human, plasma; 3 mg, first dose fasted): 125 nM
CC(C)(C)c1cc(-n2nc3ccc(Cl)cc3n2)c(O)c(C(C)(C)C)c1  mass recovery (EpiSkin reconstructed epidermis; 36 h): 48.8%
C[C@H]1COCCN1c1nc(NCc2cccnc2C(F)(F)F)c2cccnc2n1  QRS change (anaesthetized rat; intravenous, 3 mg/kg; reference: control): 5.6%
[O-][S+]1CCc2nc(N3CCC(c4ncc(Cl)cn4)CC3)nc(NC3(CO)CCC3)c21 (centres unmarked)  alanine aminotransferase (measured: mean; idiopathic pulmonary fibrosis patients, blood; 18 mg twice daily, at last treatment): 12.7 U/L
S=c1oc(-c2ccccc2)nn1CN1CCN(Cc2ccccc2)CC1  serum creatinine (Wistar rat female; oral, 300 mg/kg, acute toxicity OECD 423): 0.63 ± 0.05 mg/dL
O=S(=O)(Nc1ccccc1)c1ccc(NC(=S)Nc2ccccc2)cc1  blood chemistry level (measured: Glu; female mouse, blood; oral, 5 mg/kg daily, 14 days): 213 mg/dL
N=C(N)NCCC[C@H](NC(=O)[C@H](CCCNC(=N)N)NC(=O)[C@H](CCCCN)NC(=O)[C@H](CCC(N)=O)NC(=O)[C@H](CCCCN)NC(=O)[C@H](Cc1ccc(O)cc1)NC(=O)[C@@H](N)CCCCN)C(=O)N[C@@H](CO)C(=O)N[C@@H](Cc1ccc(O)cc1)C(=O)N[C@@H](CCCCN)C(=O)O  safety and tolerability (human, dentin hypersensitivity patients; topical to exposed dentin, up to 10 µg/tooth): not toxic
